Experimental data gathered from unrelated publications.
A part holds a random share of what one study measured. Substitutions count along the parent as printed.
Sequence of UniProt Q9Y243 (whole entry, looked up): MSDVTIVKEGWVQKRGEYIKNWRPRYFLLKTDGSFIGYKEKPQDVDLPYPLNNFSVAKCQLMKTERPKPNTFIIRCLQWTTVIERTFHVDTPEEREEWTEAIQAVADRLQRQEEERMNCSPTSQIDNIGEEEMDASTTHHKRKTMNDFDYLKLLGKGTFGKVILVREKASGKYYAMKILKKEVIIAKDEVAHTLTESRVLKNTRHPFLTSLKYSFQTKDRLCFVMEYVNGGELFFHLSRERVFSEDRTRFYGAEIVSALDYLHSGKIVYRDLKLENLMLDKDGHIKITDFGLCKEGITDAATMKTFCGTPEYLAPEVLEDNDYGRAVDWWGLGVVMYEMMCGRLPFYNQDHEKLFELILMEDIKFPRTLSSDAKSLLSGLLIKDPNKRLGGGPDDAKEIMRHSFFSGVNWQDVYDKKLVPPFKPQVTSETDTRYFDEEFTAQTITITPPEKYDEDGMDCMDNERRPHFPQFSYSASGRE

Study 1 — method: protein-binding microarray; molecule type: hairpin DNA; matrix: in vitro; concentration: not given; baseline: not given; direction: higher = stronger binding; constant ends, left off below: GAGGCCA … TGGCCTCACACTC
Target: FOXO3, forkhead domain (mouse, UniProt Q9WVH4, residues 31-263)
Sequence of UniProt Q9WVH4 (31-263, looked up): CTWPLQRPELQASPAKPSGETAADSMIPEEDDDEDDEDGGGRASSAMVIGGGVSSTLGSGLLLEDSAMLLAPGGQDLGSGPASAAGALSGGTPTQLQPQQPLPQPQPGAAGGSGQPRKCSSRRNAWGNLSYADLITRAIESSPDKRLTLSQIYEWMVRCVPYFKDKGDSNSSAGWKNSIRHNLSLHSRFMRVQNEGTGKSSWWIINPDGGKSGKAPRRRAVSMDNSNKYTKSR
Notes: whole hairpin DNA, median over replicate spots
| Sequence | median fluorescence [a.u.] |
| --- | --- |
| TATAAACAACGCCTCCTGGCGTTGTTTATA | 4150 |
| TGTAACCAGCGCCTCCTGGCGCTGGTTACA | 4310 |
| GGTAAACAACGCCTCCTGGCGTTGTTTACC (5mC at 37) | 5370 |
| TGTAACCCACGCCTCCTGGCGTGGGTTACA | 4230 |
| TGTAAACGACGCCTCCTGGCGTCGTTTACA (5mC at 14) | 4350 |
| TGCAACGAACGCCTCCTGGCGTTCGTTGCA | 4610 |
| TGCAAACACCGCCTCCTGGCGGTGTTTGCA | 5030 |
| TGTAACCAACGCCTCCTGGCGTTGGTTACA (5mC at 36) | 3770 |

Study 2 — target: FOSB, bZIP domain (human); method: DHFR protein complementation; matrix: yeast; baseline: wild-type JUN-FOS pair; direction: higher = stronger binding
Notes: single substitutions, most at no-binding floor
Starting sequence: JUN, bZIP domain (human); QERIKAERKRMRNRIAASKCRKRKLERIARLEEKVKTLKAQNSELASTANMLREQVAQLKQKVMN; partner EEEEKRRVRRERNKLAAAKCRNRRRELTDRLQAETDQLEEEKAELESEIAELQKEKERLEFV
| Change | binding fitness [natural log] |
| --- | --- |
| M51R | -0.0396 |
| E33M | -0.161 |
| N42K | -0.152 |
| M51Q | -0.00361 |
| A49F | -0.823 |
| R53H | -0.641 |
| A29P | -0.54 |
| K36I | -0.121 |

Study 3 — target: CRIPT, C-terminal peptide; method: DHFR complementation, deep sequencing; matrix: yeast; baseline: wild type; direction: higher = weaker binding
Notes: single substitutions, model-inferred values
Starting sequence: ERBIN, PDZ domain 1 (human); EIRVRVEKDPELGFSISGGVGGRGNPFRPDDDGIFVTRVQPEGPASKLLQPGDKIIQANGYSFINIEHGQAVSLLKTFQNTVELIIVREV; partner TKNYKQTSV
| Change | binding free energy change [kcal/mol] |
| --- | --- |
| Q50L | 0.00336 |
| L48T | 0.111 |
| F27R | 1.14 |
| I85R | -0.0253 |
| D30L | 0.184 |
| R28F | 0.141 |
| G22T | -0.204 |
| A71E | 0.626 |

Further values, each from its own experiment
| Structure (SMILES) | target | assay | conditions | how to read | measurement | value |
| --- | --- | --- | --- | --- | --- | --- |
| CN1CCN(c2ccc3nc(-c4c(N)c5c(F)cccc5[nH]c4=O)[nH]c3c2)CC1 | RAC-gamma serine/threonine-protein kinase (AKT3, Homo sapiens, UniProt Q9Y243) | enzyme activity, inhibitor | 0.5 µM | baseline: control | remaining activity | 88% |
